# Measurements pooled from the literature.
# Compare with care: the assays were run in different laboratories. ± gives the spread as reported.
# LCK: Tyrosine-protein kinase Lck (LCK, Homo sapiens, UniProt P06239)
SMILES,tested on,assay,test system,setting,scale,endpoint,value
Cc1nc2cccc(OCC(C)(C)C(=O)NC(C)C)c2c(N)c1C(=O)[O-].[Na+],Salmonella typhimurium,,TA1535,"0.80 mg per plate, without S9, plate incorporation",,revertant colonies per plate,14 ± 2
Cc1sc2c(c1C)C(c1ccc(Cl)cc1)=NC(CC(=O)OC(C)(C)C)c1nnc(C)n1-2 (stereo not drawn),"C-X-C chemokine receptor type 2 (CXCR2, Homo sapiens, UniProt P25025)",agonist radioligand binding,,1 µM,,specific binding,105%
O=C1NC2(CC2)COc2ncc(F)cc2[C@H]2COCCN2c2ccn3ncc1c3n2,,,"Sprague-Dawley rat, male, serum","oral, 20 mg/kg/day, end of recovery, 4-week subacute toxicity",,serum triglycerides,0.69 ± 0.44 mmol/L
Cc1cc(-c2ccc3ccccc3c2)nnc1NCCN1CCN(C)CC1,LCK,enzyme activity,,10000 nM,,inhibition,19%
CC[C@H](C)[C@H](NC(=O)[C@H](CO)NC(=O)[C@H](Cc1ccc(O)cc1)NC(=O)[C@H](Cc1ccc(O)cc1)NC(=O)[C@H](CC(N)=O)NC(=O)CNC(=O)[C@H](CO)NC(=O)[C@H](Cc1ccc(O)cc1)NC(=O)[C@H](CO)NC(=O)[C@H](CO)NC(=O)[C@H](CC(N)=O)NC(=O)COCCOCCNC(=O)CN1CCN(CC(=O)O)CCN(CC(=O)O)CCN(CC(=O)O)CC1)C(=O)N[C@@H](CC(C)C)C(N)=O [copper-64 labelled],,dynamic PET,"mouse, tamoxifen-induced PDAC, tumor","intravenous, 0.1 µg/mouse, 4.5 min",,tumour uptake,14.6 %ID/mL
Cc1ccc2cc(C(=O)N3CCCC3Cn3ccnc3)ccc2n1 (stereo not drawn),"Cholinesterase (BCHE, Homo sapiens, UniProt P06276)","enzyme activity, inhibitor, Ellman",,10 µM,,inhibition,35.4%
CCC1CC(c2ccc(C(=O)O)cc2C)=NN1c1ccc(C#N)c(Cl)c1 (stereo not drawn),"Histone-lysine N-methyltransferase EZH2 (EZH2, Homo sapiens, UniProt Q15910)","enzyme activity, inhibitor",,10 µM,,inhibition,0%
CC(C)(C)C(=O)OCOP(=O)(OCOC(=O)C(C)(C)C)C1CCCN(O)C1=O (stereo not drawn),SF-539,,,,,log LC50,> -4 log M
CN(C)[C@H]1C[C@@]23CC[C@@]4(O2)C(=CC[C@]2(C)[C@@H](c5ccc6ccncc6c5)CC[C@H]24)C=C3[C@@H](O)[C@@H]1O,"Tyrosine-protein kinase Fes/Fps (FES, Homo sapiens, UniProt P07332)","ATP probe labelling, inhibitor, KiNativ profiling",,0.1 µM,,inhibition,-5.6%
O=C1NC(=O)c2c1c1cc(F)c[n+]3c1c1c2c2cc(O)ccc2[n]1[Ru-4]312([N]=C=S)[S+]3CC[S+]1CC[S+]2CC3 (stereo not drawn),"Ribosomal protein S6 kinase alpha-1 (RPS6KA1, Homo sapiens, UniProt Q15418)",enzyme activity,,"100 nM, human enzyme, added: 10 µM ATP",reference: untreated,remaining activity,5%
COc1ccccc1-c1n[nH]c2nc(N[C@H]3CC[C@H](NS(=O)(=O)CC(C)C)CC3)ncc12,,"bead binding, competition bead pull-down, refers to: LINJ.19.1590",Leishmania donovani extract,10 µM,reference: vehicle,relative abundance,0.98
C[C@H](NCc1ccc(-c2ccc(C(F)(F)F)cc2)cc1)C(N)=O,"ALK tyrosine kinase receptor (ALK, Homo sapiens, UniProt Q9UM73)","cell-free assay, competition with immobilised ligand",,1 µM,,inhibition,41%
O=C(O)c1ccccc1/C=N/Nc1nc(-c2ccccc2Cl)cs1,"Receptor tyrosine-protein kinase erbB-4 (ERBB4, Homo sapiens, UniProt Q15303)","enzyme activity, inhibitor",,1 µM,,inhibition,-3.26%
CC(C)[C@H]1NC(=O)C[C@H]2/C=C/CCSSC[C@@H](NC1=O)C(=O)N[C@H](Cc1cccc3ccccc13)C(=O)NCC(=O)O2,"ALK tyrosine kinase receptor (ALK, Homo sapiens, UniProt Q9UM73, G1202R)","enzyme activity, inhibitor",,10 µM,,inhibition,8.9%
CN[C@@H]1[C@H](O)[C@H](NC)[C@H]2O[C@]3(O)[C@H](O[C@@H]2[C@H]1O)O[C@H](C)C[C@H]3NC(=O)Cc1ccc(Cl)cn1,"Interleukin-1 receptor type 1 (Il1r1, Mus musculus, UniProt P13504)",,,10 µM,,inhibition,16%
C=CC(=O)Nc1cc(-c2nn(C3CCC(N4CCN(C(C)=O)CC4)CC3)c3ncnc(N)c23)ccc1Oc1ccccc1 (stereo not drawn),"Ribosomal protein S6 kinase alpha-1, kinase domain 2 (RPS6KA1, Homo sapiens, UniProt Q15418)","inhibitor, KiNativ profiling",biochemical,2 µM,,inhibition,-9.6%
CN(/N=C/c1ccccc1C(=O)O)c1nc(-c2ccccc2Cl)cs1,"Phosphatidylinositol 4,5-bisphosphate 3-kinase catalytic subunit beta isoform (PIK3CB, Homo sapiens, UniProt P42338)",kinase activity,,1 µM,,inhibition,10.2%
N[C@H](C(=O)N1CCCC1)C1CCN(c2nccc3c(-c4ncc(Cl)cc4Cl)cccc23)CC1,LCK,"kinase activity, inhibitor",,"10 µM, added: ATP 1 mM",,inhibition,14%
C/C(=N\OCCCN1CCCCC1)c1ccc(C(F)(F)F)cc1,"Potassium voltage-gated channel subfamily KQT member 1, with KCNE1 (KCNQ1, Homo sapiens, UniProt P51787)","ion current, antagonist, manual patch clamp",,10 µM,,inhibition,41.1%
O=C(O)CCn1c(=O)oc2cc(Cl)c(Cl)cc21,"Kynurenine/alpha-aminoadipate aminotransferase, mitochondrial (AADAT, Homo sapiens, UniProt Q8N5Z0)","enzyme activity, inhibitor",,100 µM,,inhibition,7%
CS(C)(=O)=Nc1ccc(-c2ccc(-c3nc4cc(O[C@@H]5CO[C@H]6[C@@H]5OC[C@H]6O)[nH]c4cc3F)cc2)cc1,"Mast/stem cell growth factor receptor Kit (KIT, Homo sapiens, UniProt P10721, D816H)","enzyme activity, inhibitor",,10 µM,,inhibition,-17%
COc1ccccc1-c1n[nH]c2nc(NC3CCN(C(=O)Cc4ccc(F)cc4F)CC3)ncc12,,"bead binding, competition bead pull-down, refers to: LINJ.28.3140",Leishmania donovani extract,10 µM,reference: vehicle,relative abundance,1.09
O=C(CCCCCCC(=O)Nc1ccccc1)NO,"Histone deacetylase 3 (HDAC3, Homo sapiens, UniProt O15379)","enzyme activity, inhibitor",,1 µM,,inhibition,96.6%
COc1ccc(F)cc1S(=O)(=O)Nc1cnc2c(c1)C(=O)NCCO2,"Type-1 angiotensin II receptor (AGTR1, Homo sapiens, UniProt P30556)","ligand displacement, radioligand",,10 µM,,inhibition,7%

# Excerpt of the above:
SMILES,tested on,assay,test system,setting,scale,endpoint,value
C=CC(=O)Nc1cc(-c2nn(C3CCC(N4CCN(C(C)=O)CC4)CC3)c3ncnc(N)c23)ccc1Oc1ccccc1 (stereo not drawn),"Ribosomal protein S6 kinase alpha-1, kinase domain 2 (RPS6KA1, Homo sapiens, UniProt Q15418)","inhibitor, KiNativ profiling",biochemical,2 µM,,inhibition,-9.6%
COc1ccc(F)cc1S(=O)(=O)Nc1cnc2c(c1)C(=O)NCCO2,"Type-1 angiotensin II receptor (AGTR1, Homo sapiens, UniProt P30556)","ligand displacement, radioligand",,10 µM,,inhibition,7%
C[C@H](NCc1ccc(-c2ccc(C(F)(F)F)cc2)cc1)C(N)=O,"ALK tyrosine kinase receptor (ALK, Homo sapiens, UniProt Q9UM73)","cell-free assay, competition with immobilised ligand",,1 µM,,inhibition,41%
